# Experimental data of several laboratories.
# Every numbered part comes from another study and shows a few of its results, in no order.

# Study 1
# Target: Histone acetyltransferase KAT6A, winged helix 2, GST fusion (KAT6A, Homo sapiens, UniProt Q92794, residues 85-181)
# Method: protein binding microarray
# Form: double-stranded DNA, one strand shown
# Matrix: in vitro
# Tested at: not given
# Notes: 8-mer, flanks averaged, mean of 2 arrays, mostly near background
# Baseline: not given
# Direction: higher = stronger binding
# Target sequence (chain): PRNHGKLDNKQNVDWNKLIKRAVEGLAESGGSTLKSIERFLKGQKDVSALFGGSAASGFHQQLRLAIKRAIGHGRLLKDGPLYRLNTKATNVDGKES
Strand,E-score
GCGTGGCA,0.127
GTGAGCAA,0.0646
CAGCTGGC,0.0851
GGTGCACC,0.0448
GACCAGCA,0.0407
AATAATGC,0.0685
CAGGATCA,0.0185
AGTGATAT,-0.0718

# Study 2
# Target: Interferon regulatory factor 5, full length, phosphomimetic (IRF5, Homo sapiens, UniProt Q13568-2, residues 1-514, K96S/S451D/S453D/S456D/S462D)
# Method: protein-binding microarray
# Form: double-stranded DNA, one strand shown
# Matrix: in vitro
# Tested at: 250 nM
# Notes: 60-bp whole probe
# Together with: salmon DNA 0.4 mg/ml
# Baseline: random background probes
# Direction: higher = stronger binding
# Constant ends, left off below: GCCTAGCAC … GTCTTGATTCGCTTGACGCTGCTG
Strand,log fluorescence
GACGAACTGAGTCTCGAGAGGTGCTAG,-0.32 z-score
AAGCCAGGACGAGCTCGCCTGTGCTAG,-0.897 z-score
CCAGACTGCAGAGCAAGATCGTGCTAG,-0.455 z-score
TTAGGTTTCTGGTATCGGTTAGTGCTA,7.31 z-score
TTCTCTAACCTCTCTAATAAAGTGCTA,0.414 z-score
GTCGGTCTCCTTTTCCTGACGTGCTAG,0.528 z-score
CGAGTTTCCATTTTCTGAATGTGCTAG,2.48 z-score
GACGTTTTCAGTTTCGAGACGTGCTAG,7.4 z-score

# Study 3
# Target: Replicase polyprotein 1ab, nsp13 helicase (rep, Severe acute respiratory syndrome coronavirus 2, UniProt P0DTD1)
# Mode: inhibitor
# Tested at: 20 µM
Compound,inhibition [%]
C[C@H](N)Cn1ccc2cc(F)c(Cl)cc21,1.27
O=C(O)c1cc2cccc([N+](=O)[O-])c2[nH]1,7.09
COC(=O)Nc1ccc2[nH]cc(CCNC(C)=O)c2c1,6.67
CN1c2ccccc2C(=O)N2CCc3c([nH]c4ccccc34)C21 (stereo in doubt),5.84
CNc1nc(-c2ccc3c(N)n[nH]c3c2)cc(N2C[C@@H](C(=O)NC3CCCCC3)CC[C@H]2C)n1,5.22
O=C(NCC(=O)N1CCCC1)Nc1ccc2cnccc2c1,10.1
COc1ccc(C2=N[C@@H](c3ccc(Cl)cc3)[C@@H](c3ccc(Cl)cc3)N2C(=O)N2CCNC(=O)C2)c(OC(C)C)c1,10.5
Cc1cc(C)c(S(=O)(=O)n2cc(C)cc2C)c(C)c1,-2.51
CC1(C)CCC(C)(C)c2cc(C(=O)Nc3ccc(C(=O)O)cc3)ccc21,5.98
COc1ccc(C(C)=O)c(O)c1,0.31
NC(N)=NCCC[C@H](NC(=O)c1sccc1NS(=O)(=O)c1cccc2nsnc12)C(=O)O,2.09
O=C(Nc1cc(C(F)(F)F)cc(C(F)(F)F)c1)c1cnc(Cl)nc1C(F)(F)F,2.97
CC1(C)CCC(C)(C)c2cc(C3(c4ccc5cc(C(=O)O)ccc5c4)SCCS3)ccc21,4.26
CO[C@H]1O[C@@H]2O[C@@]3(C)CC[C@H]4[C@H](C)CC[C@@H]([C@H]1C)[C@@]24OO3,5.55
CC1=C(/C=C/C(C)=C/C=C/C(C)=C/CO)C(C)(C)CCC1,10.8
C[C@@H](N)[C@@H](O)c1ccccc1,4.15
COc1cc(N2CCN(C)CC2)ccc1Nc1nccc(-c2cn(C)c3cnccc23)n1,44.4
CCCCCCCCCC(=O)O[C@H]1CC[C@H]2[C@@H]3CCC4=CC(=O)CC[C@@H]4[C@H]3CC[C@]12C,-0.43
O=C(O)CNC(=O)C1C(=O)N(C2CCCCC2)C(=O)N(C2CCCCC2)C1=O,2.83
C[C@H]1NC(=O)NC1=O,-2

# Study 4
# Target: Sal-like protein 4, full length isoform B (SALL4, Homo sapiens, UniProt Q9UJQ4-2, residues 1-616)
# Method: universal PBM
# Form: double-stranded DNA, one strand shown
# Matrix: in vitro
# Tested at: not given
# Notes: 8-mer, flanks averaged, mean of replicates
# Direction: higher = stronger binding
Strand,E-score
TAGGGACA,0.0305
ACTCGACG,-0.125
CAGACAGC,-0.196
ACATATTG,0.302
CGGGATAA,0.0161
CCAGAGTA,-0.16
ATTCAGTG,0.0843
GCTCTTAC,-0.0982

# Other studies, line by line
# Target: Replicase polyprotein 1ab, 3C-like proteinase (rep, Middle East respiratory syndrome-related coronavirus, UniProt K9N7C7)
# Observed: enzyme activity
# Tested at: 10 µM
Compound,inhibition [%]
O=C1C=Cc2cc(Br)ccc2C1=O,9
Oc1cc2c(cc1O)C(c1ccccc1)CNCC2 (stereo not shown),5
